Experimental data collected from several papers.
Lines come from different studies, so protocols differ. Values joined by “and” are separate records of one study, mostly repeats; a detail may differ. ± marks the error that the study gave.
UCHL1: Ubiquitin carboxyl-terminal hydrolase isozyme L1 (UCHL1, Homo sapiens, UniProt P09936)
ADRA2C: Alpha-2C adrenergic receptor (ADRA2C, Homo sapiens, UniProt P18825)
Voltage-dependent P/Q-type calcium channel subunit alpha-1A: Voltage-dependent P/Q-type calcium channel subunit alpha-1A (Homo sapiens, UniProt O00555)
T1: G-quadruplex DNA (Homo sapiens); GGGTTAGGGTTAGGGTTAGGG

Compound | target or system | test | system | setting | how to read | endpoint | result
Nc1ccc(C(=O)O)cc1 | BEST1 (Homo sapiens, UniProt O76090) | whole-cell patch clamp | HEK293 transiently expressing channel | concentration not given, membrane potential 20 mV |  | current density | 18.6 pA/pF and 17.5 pA/pF and 12.5 pA/pF and 10.7 pA/pF and 11.1 pA/pF and 22.1 pA/pF and 23 pA/pF
CCC(=O)NS(=O)(=O)c1ccc(-c2c(-c3ccccc3)noc2C)cc1 | Vitamin D3 receptor (VDR, Homo sapiens, UniProt P11473) | reporter gene, Gal4 hybrid reporter |  | 50 µM | baseline: vehicle | activation | 0.68 fold
COc1cc(Nc2ncc3c(n2)-c2ccc(Cl)cc2C(c2c(F)cccc2OC)=NC3)ccc1C(=O)O | MAP2K1 | kinase activity |  | 1 µM |  | remaining activity | 105%
CN(C)CCCNc1nc(-c2cccc(-c3nc(NCCCN(C)C)c4ccccc4n3)n2)nc2ccccc12 | T1, G-quadruplex DNA (Homo sapiens) | FRET melting |  | 1 µM, pH 7.2, KCl 10 mM |  | ΔTm | > 15 °C
Cc1cc2nc3c(=O)[nH]c(=O)nc-3n(C[C@H](O)[C@H](O)[C@H](O)COP(=O)(O)OP(=O)(O)OC[C@H]3O[C@@H](n4cnc5c(N)ncnc54)[C@H](O)[C@@H]3O)c2cc1C | Acyl-coenzyme A oxidase acox-1.1 (acox-1.1, Caenorhabditis elegans, UniProt O62140) | UV spectroscopy |  |  |  | enzyme bound with compound | 56% and 26.8% and 64% and 50% and 43% and 70%
COc1cc([C@@H]2c3cc4c(cc3[C@@H](O[C@@H]3O[C@@H]5CO[C@@H](C)O[C@H]5[C@H](O)[C@H]3O)[C@H]3COC(=O)[C@H]23)OCO4)cc(OC)c1O | human CMG helicase | in vitro |  | 500 µM |  | helicase activity | no effect
Cn1c(-c2ccccc2)c(C(=O)CCl)c2ccccc21 | UCHL1 | covalent, intact protein LC-MS |  | 12.5 µM |  | labelling | 42.7%
CC[C@H](C)[C@H](NC(=O)[C@H](CO)NC(=O)[C@@H](N)CC(C)C)C(=O)N[C@H](C(=O)N[C@@H](CC(N)=O)C(=O)N[C@@H](Cc1ccccc1)C(=O)N[C@@H](CCC(=O)O)C(=O)N[C@@H](CCCCN)C(=O)N[C@@H](CC(C)C)C(=O)O)[C@@H](C)CC | Endoplasmic reticulum aminopeptidase 2 (ERAP2, Homo sapiens, UniProt Q6P179) | substrate |  |  |  | Km | 0.0104 mM
O=c1cc(-c2ccc([N+](=O)[O-])cc2)[nH]c2c(-c3ccc(Cl)cc3)c(Cc3ccccc3)nn12 | Inactive glycosyltransferase 25 family member 3 (CERCAM, Homo sapiens, UniProt Q5T4B2) | thermal stability, binder, thermal proteome profiling | RD, cell lysate | 50 µM, 0.5% DMSO | baseline: DMSO vehicle | melting temperature shift | 4.1 °C
Cc1ccc(S(=O)(=O)n2nc(SCc3ccc(Cl)cc3)nc2N)cc1 | Lysophospholipase-like protein 1 (Mus musculus, UniProt Q3UFF7) | enzyme activity, activator, gel-based ABPP | purified protein | concentration not given, together with: FP-rhodamine | baseline: DMSO | probe labeling increase | 2.2 fold
CC(C)C[C@H](NC(=O)C[C@H](O)[C@H](CC(C)C)NC(=O)[C@H](Cc1c[nH]cn1)NC(=O)CNC(=O)[C@@H](NC(=O)[C@H](C)NC(=O)[C@H](Cc1c[nH]c2ccccc12)NC(=O)[C@H](CCC(N)=O)NC(=O)[C@@H](Cc1ccccc1)NC(=O)COCCOCCNC(=O)CCC(C(=O)O)N1CCN(CC(=O)O)CCN(CC(=O)O)CCN(CC(=O)O)CC1)C(C)C)C(N)=O (stereo partly drawn) [lutetium-177 labelled] |  |  | BALB/c nu/nu mice, female, pancreas | intravenous, 100 pmol, 30 min, time course 0.5 h, together with: PA 300 µg |  | tissue uptake | 19 ± 2 %ID/g
Cc1cc(Oc2ncccc2CN2CCN(c3cc(Cl)cc(Cl)c3)CC2)ccc1-c1c(C)c(=O)[nH]c(=O)n1C | ADRA2C | binding, radioligand binding |  | together with: [3H]rauwolscine | baseline: Ki alpha2B over Ki alpha2C | selectivity ratio | 3
N#CC(=Cc1c(F)cccc1F)C(=O)NCCc1ccccc1 | UCHL1 | covalent, intact protein LC-MS |  | 12.5 µM |  | labelling | 20.7%
Cn1ncc(S(=O)(=O)NC2CC(C)(C)Oc3ccc(F)cc32)c1C(=O)O (stereo not drawn) | malate dehydrogenase | enzyme activity, inhibitor |  | 200 µM, pH 7.0, 1% DMSO, aggregation counter-screen |  | remaining activity | 102%
O=c1nc(SCc2cc(F)cc(C(F)(F)F)c2)nc(SCc2ccc3nc(Cl)ccc3c2)[nH]1 | DNA topoisomerase 2-beta (TOP2B, Homo sapiens, UniProt Q02880) | decatenation |  | 7.8 µM, replicate 2 |  | decatenated DNA | 100%
CS(=O)(=O)NCCc1ccc(C(=O)CCl)cc1 | UCHL1 | covalent, intact protein LC-MS |  | 12.5 µM |  | labelling | 10.1%
CC[C@@H]1[C@H](F)C(=O)N[C@@H]1COc1nccc2cc(C(N)=O)c(OC)cc12 | Serine/threonine-protein kinase tousled-like 2 (TLK2, Homo sapiens, UniProt Q86UE8) | ATP-site probe binding, ActivX profiling | THP-1 cell lysate | 0.04 mM, Lys1 site |  | inhibition | 2.6%
CSCC(NS(=O)(=O)c1cnccc1C(=O)O)c1ccccc1Cl (stereo not drawn) | malate dehydrogenase | enzyme activity, inhibitor |  | 200 µM, pH 7.0, 1% DMSO, aggregation counter-screen |  | remaining activity | 91%
O=C(CCl)Cc1c(Cl)cccc1Cl | UCHL1 | covalent, intact protein LC-MS |  | 12.5 µM |  | labelling | 22.3%
Cc1ccc2c(c1)sc(-c1ccc(N(C)C)cc1)[n+]2C | Trypanosoma cruzi | reporter translation, Renilla luciferase mRNA translation | cell-free extract | 40 µM | baseline: DMSO | inhibition | 14.1%
C=CC(=O)N1CCC(COCC(=O)N2CCN(c3nc(-c4cnc(N)nc4C(F)F)nc(N4CCOC[C@@H]4C)n3)CC2)CC1 | Phosphatidylinositol 4,5-bisphosphate 3-kinase catalytic subunit alpha isoform (PIK3CA, Homo sapiens, UniProt P42336, I800L) | KINOMEscan |  | 1 µM |  | remaining binding | 0.2%
Nc1ncnc2c1ncn2[C@@H]1O[C@H](COP(=O)(O)CP(=O)(O)OP(=O)(O)O)[C@@H](O)[C@H]1O | P2X purinoceptor 1 (P2RX1, Homo sapiens, UniProt P51575, K140A) | saturation binding | HEK293 | 130 nM |  | specific binding | 2670 CCPM and 5290 CCPM and 8740 CCPM
O[C@@H](COc1ccc2cc(Br)ccc2c1)Cn1ccnc1 | Trypanosoma cruzi | reporter translation, Renilla luciferase mRNA translation | cell-free extract | 40 µM | baseline: DMSO | inhibition | 0.37%

Compound | target or system | test | system | setting | how to read | endpoint | result
O=C(CCl)Nc1nc2c(s1)CCc1ccccc1-2 | UCHL1 | covalent, intact protein LC-MS |  | 12.5 µM |  | labelling | 14.6%
CC(=O)O[C@H]1C(=O)[C@@]2(C)[C@H]([C@H](OC(=O)c3ccccc3)[C@]3(O)C[C@H](OC(=O)[C@H](O)[C@@H](NC(=O)c4ccccc4)c4ccccc4)C(C)=C1C3(C)C)[C@]1(OC(C)=O)CO[C@@H]1C[C@@H]2O | Voltage-dependent P/Q-type calcium channel subunit alpha-1A | ion current, antagonist, automated patch clamp |  |  |  | IC30 | > 30 µM
CCN1CCC[C@H]1CNC(=O)c1c(O)c(Cl)cc(Cl)c1OC | Opsin-5 (OPN5, Homo sapiens, UniProt Q6U736) | β-arrestin recruitment, TANGO luminescence, measured: OPN5 |  | concentration not given | baseline: basal luminescence | log2 fold change | 0.104
Cc1cc(Oc2ncccc2CN2CCN(Cc3ccccc3Cl)CC2)ccc1-c1c(C)c(=O)[nH]c(=O)n1C | ADRA2C | binding, radioligand binding |  | together with: [3H]rauwolscine | baseline: Ki alpha2A over Ki alpha2C | selectivity ratio | 3
Nc1nc2c(ncn2[C@@H]2O[C@H](COP(=O)(O)O)[C@@H](O)[C@H]2O)c(=O)[nH]1 | GUK1 (Homo sapiens, UniProt Q16774, Y81A) | enzyme activity, NADH-coupled |  | 62.5 µM |  | reaction rate | 1.78 s⁻¹ and 1.86 s⁻¹ and 1.38 s⁻¹
Cn1ncc(S(=O)(=O)NC2(c3cccc(OC(F)(F)F)c3)CC2)c1C(=O)O | malate dehydrogenase | enzyme activity, inhibitor |  | 200 µM, pH 7.0, 1% DMSO, aggregation counter-screen |  | remaining activity | 98%
CC/C=C(\C)C=O | Uncharacterized protein PH0856 (Pyrococcus horikoshii, UniProt O58586) | substrate, biocatalytic transformation |  | pH 7, 30 °C, anaerobic, together with: NADPH |  | conversion | 80%
Cc1cn(C2CCN(Cc3cccc(Oc4cc(Cl)cc(Cl)c4)c3)CC2)c(=O)[nH]c1=O | Thymidylate kinase (DTYMK, Homo sapiens, UniProt P23919) | enzyme activity, inhibitor |  | no inhibition observed |  | highest concentration tested | > 40 µM
CNCC[C@@H](Oc1ccccc1C)c1ccccc1 | Voltage-dependent P/Q-type calcium channel subunit alpha-1A | ion current, antagonist | HEK293 | 10 µM |  | inhibition | 52%
N#CC(=Cc1cccc(O)c1)C(=O)Nc1ccc(N2CCOCC2)cc1 | UCHL1 | covalent, intact protein LC-MS |  | 12.5 µM |  | labelling | 22.3%
Nc1ccn([C@@H]2O[C@H](COP(=O)(O)OP(=O)(O)O)[C@@H](O)[C@H]2O)c(=O)n1 | Ribonuclease pancreatic (RNASE1, Bos taurus, UniProt P61823) | surface sampling native MS |  | charge state 6+ |  | Kd | 4.1 ± 0.5 µM
O=S(=O)(NCC[S+]([O-])c1ccccc1F)c1cc(Cl)cc(Cl)c1O (stereo not drawn) | malate dehydrogenase | enzyme activity, inhibitor |  | 200 µM, pH 7.0, 1% DMSO, aggregation counter-screen |  | remaining activity | 89%
Cn1c(=O)c2[nH]cnc2n(C)c1=O | Voltage-dependent P/Q-type calcium channel subunit alpha-1A | ion current, antagonist, automated patch clamp |  |  |  | IC30 | > 30 µM
Nc1nc2c(ncn2[C@@H]2O[C@@H]3COP(=O)(O)O[C@H]4[C@@H](O)[C@H](n5cnc6c(=O)[nH]c(N)nc65)O[C@@H]4COP(=O)(O)O[C@H]3[C@H]2O)c(=O)[nH]1 | Cell cycle histidine kinase CckA, CA domain (Caulobacter vibrioides, UniProt Q9X688) | binding, ITC |  | together with: ADP 5 mM |  | ΔH | 9.3 ± 0.461 kJ/mol
CC[C@H]1OC(=O)[C@H](C)[C@@H](O[C@H]2C[C@@](C)(OC)[C@@H](O)[C@H](C)O2)[C@H](C)[C@@H](O[C@@H]2O[C@H](C)C[C@H](N(C)C)[C@H]2O)[C@](C)(O)C[C@@H](C)C(=O)[C@H](C)[C@@H](O)[C@]1(C)O | uncharacterized protein (Saccharopolyspora erythraea, UniProt A4F7P9) |  |  | concentration not given, pH 7.6, 20 °C, together with: p-nitrophenyl-β-D-glucopyranoside |  | apparent Km | 7.27 ± 0.58 mM
N#CC(=Cc1cccc([N+](=O)[O-])c1)C(=O)NCc1ccccc1 | UCHL1 | covalent, intact protein LC-MS |  | 12.5 µM |  | labelling | 32.8%
O=c1ccc2c(OCCCCOc3ccccc3)c3ccoc3c(O)c2o1 | Potassium voltage-gated channel subfamily A member 3 (Kcna3, Mus musculus, UniProt P16390) | potassium current, blocker | L929 |  |  | Hill coefficient | 1.8
CC(=C/C(=O)O)/C=C/C=C(\C)C1C=C2C(C)(C)CCCC2(C)O1 (stereo not drawn) | Rhodopsin (RHO, Homo sapiens, UniProt P08100, P23H) | ER retention, immunostaining co-localization, measured: opsin with calnexin | COS-7 transfected P23H | 1.00 µM |  | Pearson correlation coefficient | 0.74
CC(=O)N[C@H](C(=O)N[C@@H](CC(=O)O)C(=O)N1CCC[C@H]1C(=O)N1CCC[C@H]1C(=O)N[C@@H](CC(C)C)C(=O)N[C@@H](Cc1c[nH]cn1)C(=O)N[C@@H](CO)C(=O)N[C@H](C(=O)N[C@@H](C)C(N)=O)[C@@H](C)OP(=O)(O)O)C(C)C | Serine/threonine-protein kinase PLK1 (PLK1, Homo sapiens, UniProt P53350) | polo-box domain binding, isothermal titration calorimetry |  | concentration not given, 25 °C |  | binding stoichiometry | 1
O=c1nc(SCc2cc(F)cc(C(F)(F)F)c2)nc(SCc2ccc3nc(OCCN4CCOCC4)ccc3c2)[nH]1 | DNA topoisomerase 2-alpha (TOP2A, Homo sapiens, UniProt P11388) | DNA cleavage |  | 125 µM, replicate 1 |  | linear DNA | 0%
O=C(O)Cc1ccccc1Nc1c(Cl)cccc1Cl | Voltage-dependent P/Q-type calcium channel subunit alpha-1A | ion current, antagonist | HEK293 | 30 µM |  | inhibition | 8%
COc1ccc2c(c1)C(CC(=O)NCCNC(=O)CCn1c(=O)[nH]c(=O)c3ccccc31)CC2=O (stereo not drawn) | Poly [ADP-ribose] polymerase tankyrase-1 (TNKS, Homo sapiens, UniProt O95271) | enzyme activity, inhibitor |  |  |  | ligand efficiency | 0.42

Excerpt of the above:
Compound | target or system | test | system | setting | how to read | endpoint | result
O=c1cc(-c2ccc([N+](=O)[O-])cc2)[nH]c2c(-c3ccc(Cl)cc3)c(Cc3ccccc3)nn12 | Inactive glycosyltransferase 25 family member 3 (CERCAM, Homo sapiens, UniProt Q5T4B2) | thermal stability, binder, thermal proteome profiling | RD, cell lysate | 50 µM, 0.5% DMSO | baseline: DMSO vehicle | melting temperature shift | 4.1 °C
Nc1ccn([C@@H]2O[C@H](COP(=O)(O)OP(=O)(O)O)[C@@H](O)[C@H]2O)c(=O)n1 | Ribonuclease pancreatic (RNASE1, Bos taurus, UniProt P61823) | surface sampling native MS |  | charge state 6+ |  | Kd | 4.1 ± 0.5 µM
CC(=O)O[C@H]1C(=O)[C@@]2(C)[C@H]([C@H](OC(=O)c3ccccc3)[C@]3(O)C[C@H](OC(=O)[C@H](O)[C@@H](NC(=O)c4ccccc4)c4ccccc4)C(C)=C1C3(C)C)[C@]1(OC(C)=O)CO[C@@H]1C[C@@H]2O | Voltage-dependent P/Q-type calcium channel subunit alpha-1A | ion current, antagonist, automated patch clamp |  |  |  | IC30 | > 30 µM
